Experimental data from different studies.
Parts stem from different laboratories: compare values within a part only. Changes are numbered by the printed parent chain.

Series 1 — method: protein binding microarray; molecule type: double-stranded DNA, one strand shown; medium: in vitro; tested at: not given; relative to: not given; direction: higher = stronger binding
Target: Histone acetyltransferase KAT6A, winged helix 2, GST fusion (KAT6A, Homo sapiens, UniProt Q92794, residues 85-181)
Setting: 8-mer, flanks averaged, mean of 2 arrays, mostly near background
Target sequence (chain): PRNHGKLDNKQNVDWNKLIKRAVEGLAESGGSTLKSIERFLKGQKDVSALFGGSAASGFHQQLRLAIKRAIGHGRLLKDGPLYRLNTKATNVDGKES
| Strand | E-score |
| --- | --- |
| AGGGATTA | -0.0362 |
| CTAGTGAA | -0.0268 |
| ATTATTCC | 0.0406 |
| ACAGAGAA | -0.0651 |
| ACCATGGA | -0.164 |
| AAGGTCGG | 0.0638 |
| AACGAGCA | -0.0144 |
| CCTCAGCA | 0.0674 |
| ACGTGCCC | -0.185 |
| ATGCACTA | -0.093 |
| AGTTCCTG | -0.0787 |
| GAGACGTA | -0.179 |
| CTCTGGAA | -0.0304 |
| CACATACA | -0.25 |
| CGAGCAGA | 0.129 |
| CGCGTTTA | -0.109 |
| GTTAAATA | -0.0726 |
| GAACCGCA | 0.248 |
| TATGATCA | 0.0767 |
| ATGTATAA | -0.171 |
| CCCTAGCC | -0.0765 |
| ATCATCAG | 0.0327 |
| ACCCTTTA | 0.0141 |
| GATAAGAC | -0.182 |
| CGTTGAAG | -0.122 |

Series 2 — method: protein-binding microarray; molecule type: double-stranded DNA, one strand shown; medium: in vitro; tested at: 2540 nM top; setting: 60-bp whole probe; together with: salmon DNA 0.4 mg/ml; relative to: random background probes; direction: higher = stronger binding; shared flanks, not repeated: GCCTAGCAC … GTCTTGATTCGCTTGACGCTGCTG
Target: Interferon regulatory factor 3, full length, phosphomimetic (IRF3, Homo sapiens, UniProt Q14653, residues 1-427, S386D/S396D/S398D/S402D/T404D/S405D)
Target sequence (chain): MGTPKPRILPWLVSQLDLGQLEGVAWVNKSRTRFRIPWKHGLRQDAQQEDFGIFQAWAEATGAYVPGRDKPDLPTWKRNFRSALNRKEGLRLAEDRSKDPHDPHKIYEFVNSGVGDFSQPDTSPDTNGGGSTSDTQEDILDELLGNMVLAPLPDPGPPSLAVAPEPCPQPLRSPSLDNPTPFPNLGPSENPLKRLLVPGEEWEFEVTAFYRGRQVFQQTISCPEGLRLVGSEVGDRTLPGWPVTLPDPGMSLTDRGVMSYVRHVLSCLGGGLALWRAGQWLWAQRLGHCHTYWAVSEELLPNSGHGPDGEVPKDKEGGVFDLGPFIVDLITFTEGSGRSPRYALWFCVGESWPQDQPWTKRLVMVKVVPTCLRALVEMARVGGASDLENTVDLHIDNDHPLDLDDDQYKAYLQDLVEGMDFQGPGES
| Strand | fitted relative affinity [z-score] |
| --- | --- |
| GACAGTCTCCTACTGCTGACGTGCTAG | 1.55 |
| TGAGATTTCAGTTTCGATTAGTGCTAG | 5.82 |
| GACGAACTGAGTCCCGAGACGTGCTAG | -0.35 |
| TTAGGTTTCGGTGTCGGTTAGTGCTAG | 6.2 |
| TTAGATATCGGATTTCGATTAGTGCTA | 1.9 |
| GACGAACTGAGTATTGAGACGTGCTAG | -0.117 |
| GACGGTTTCCTACTGTTGACGTGCTAG | 5.13 |
| TCATGTCTGGGATGTAATACTGTGCTA | -0.32 |
| GACGGACTGGGGATTCGGGACGTGCTA | -0.717 |
| CAGCTTCTAATATTCATTTTGTGCTAG | 1 |
| TCACCTTAGGTTTTCTGACTGTGCTAG | 0.575 |
| GACGGTTTCGGTTCCCGGACGTGCTAG | 9.42 |
| GACGGACTGGACACTGGGGGCGTGCTA | -0.444 |
| GACGGTCTCGGGATCGGGACGTGCTAG | 0.199 |
| GACGAAGTGAGTTTCGAGACGTGCTAG | 1.17 |
| GAGGAACTGAGTCTCGAGACGTGCTAG | -0.733 |
| TTAGATATCCGGACTGGATTAGTGCTA | 0.76 |
| TTAGGTTTCCCACTGCTTTAGTGCTAG | 4.57 |
| TTTTTGTTGTTTTTTGGTTTGTGCTAG | 2.08 |
| TTAGAAATGGGGTATCGATTAGTGCTA | -0.225 |
| ACACTACCTGACTTCAAACTGTGCTAG | 0.501 |
| GAATGTCCTCCTCTCTCTTTGTGCTAG | 0.916 |
| TTAGGTATCGGTATCGGTTTGTGCTAG | 6.55 |

Series 3 — target: CCND2, cyclin fold, Cln2 fusion (human); method: yeast growth competition, sequencing; medium: yeast; setting: weak parent motif; relative to: not given; direction: higher = stronger binding
Starting sequence: MASTL docking peptide (human); PMIAKNLMCELDE; partner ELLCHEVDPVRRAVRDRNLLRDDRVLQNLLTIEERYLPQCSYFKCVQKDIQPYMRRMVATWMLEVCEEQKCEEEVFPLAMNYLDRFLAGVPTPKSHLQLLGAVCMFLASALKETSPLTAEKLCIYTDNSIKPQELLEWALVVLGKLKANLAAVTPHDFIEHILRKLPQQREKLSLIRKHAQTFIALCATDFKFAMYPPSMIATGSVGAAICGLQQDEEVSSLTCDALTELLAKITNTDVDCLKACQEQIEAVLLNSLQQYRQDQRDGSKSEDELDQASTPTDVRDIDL
| Change | normalised enrichment score |
| --- | --- |
| M2H | 0.0615 |
| N6L | -0.155 |
| M2A | -0.141 |
| N6I | 0.188 |
| E10C | 0.0407 |
| I3L | 0.126 |
| A4V | 0.104 |
| M2Q | 0.165 |
| A4I | 0.00592 |
| K5F | -0.0221 |
| L7A | -0.0296 |
| E10F | -0.21 |
| K5H | 0.0158 |
| L7I | -0.0265 |
| L7T | -0.222 |
| L7E | 0.454 |
| M8F | -0.0518 |

Series 4 — method: RNA Bind-n-Seq; molecule type: RNA; medium: in vitro; tested at: 365 nM; relative to: no-protein control; direction: higher = stronger binding
Target: RNA binding protein fox-1 homolog 2, RRM domain, GST-SBP tag (RBFOX2, Homo sapiens, UniProt O43251-10, residues 100-194)
Setting: natural RNA segment, single round, ends assumed
Shared flanks, not repeated: GGGAGUUCUACAGUCCGACGAUC … UGGAAUUCUCGGGUGCCAA
Target sequence (chain): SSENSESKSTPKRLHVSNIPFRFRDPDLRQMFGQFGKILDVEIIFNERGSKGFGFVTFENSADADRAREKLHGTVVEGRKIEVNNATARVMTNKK
| Strand | RBNS enrichment (R) |
| --- | --- |
| AACUUGGCAACAGUUUUCCUAGAGUGACUCAGACACACCACAGUAACAACUCUCGCUGCAAUUUUAUUUUAAUUUGAGAAAUAAAGAUUUCCUCCAAGCCACAUGAGGAC | 1.15 |
| ACAUUGUUGGUCACCGAGCUAUUUAAGUAGACUGUAUUUCAGCUCUGUCUCUUGUUUAUAUGAAUAAGUUCUCGUCGUUUGUCCUUUAUGUAUUCUUCUCUACCGUAUAA | 1.24 |
| UAUUUUCGGAGCCAGUGAUGCUCUUUAAAGGAGUUAUUUCUUCCAAAGAAGCAAGACGAGCCAGGUUACUGACAUAAUCUUUAUGACAUGUGUACUGCAGUUGUGCCUUU | 0.239 |
| CCAGACUUGCACUGGGGUGGGAUUUGGAGUGAUGGGAAGGUUUUUAAGGGCCGGGGAUGGAUCUUUUCUAAAUGUUAUUACUUGUAAAUAAAGUCUAUUUUUCUCCCGUG | 0.854 |
| ACCCUUCCCUUUUAAAGUCCCUGAAUUUUACAGUCUGCUUUCAAAUGAAAUAUUGUACUUUAAUUCAUUCAGGAAGCAAAUUGAGUGCCUAUAAGUGAGACACUGUGCUG | 0.27 |
| UGCAUUAAAUAUUGGGCAAAAUUGCACUUGACUAAUUUUUUGAAGAAAAGUAAUUUAUUCUGUCAAGAAAUAAAAAAAUAGGCUUUGUGUAUGGUUAAACUGUAAAUCUU | 0.545 |
| CACACCCCUAUUUCAUGUCUGAAAUAACCCUGUUUCAUACCAGUUGCAAAGCUUGUGGGGAGCGGUCCCACAAAGCACUUUCUUAAACCUUGAGAAUCUCCAAGAGAAAA | 0.378 |
| AGGCCCAUCUCACAAAGACUGGGGAUGUGAACACAUUGGUGUGAGUCAUCAGAAACCCCGUACUCAUGGCCCUGCUCAGGGCUGCUGUUGACUCUGCUUGAGAGGUGGCA | 2.03 |
| CCAAGCUGGCAUAAGAACCAAGACCUUCAAAGCAGCCUGAACUCAAGAUGACAUAUUUUACAAGUUAGAGUAAAGUCAAGAGCUGAGUUGUUUUGUCCAACUCAGGAUGG | 0.216 |
| UGUAGGCUUCUCCCUUGUGCAAAGCUUAGCAAUUUGUAGGAAACUUUGAUCUUUUUGUCCAAGAAAAGGAAUGUCUGACAGGCUUAAGCUUUCGUCCCCUUGCACUUAGA | 0.399 |
| AAUGGUCUUAACUGAAGUCCAACUUCAGUUACAAUUUUCAGAGGCUCGUUGUUUUCCCAAAGCUAAAUCUUUAUACUAAAUGCAAUACUGACUUUUUCUUAAGUAGCUAA | 0.61 |
| CUGGGUGACAGAGCGAGACCCUGUCUUAAAAAAAAAAACAAAACAAAACCAGCAUCUGUUACUGGAACAGAGACCUCAGCCCAAGCUCAGGACAAGGAGGCCUCCCUGGG | 0.625 |

Series 5 — method: RNA Bind-n-Seq; molecule type: RNA; medium: in vitro; tested at: 1 µM; setting: whole 134-nt RNA, ends assumed; together with: 150 mM KCl; relative to: input library; direction: higher = stronger binding
Target: Ras GTPase-activating protein-binding protein 1, RRM domain (G3BP1, Homo sapiens, UniProt Q13283)
Chain of UniProt Q13283 (whole entry, looked up): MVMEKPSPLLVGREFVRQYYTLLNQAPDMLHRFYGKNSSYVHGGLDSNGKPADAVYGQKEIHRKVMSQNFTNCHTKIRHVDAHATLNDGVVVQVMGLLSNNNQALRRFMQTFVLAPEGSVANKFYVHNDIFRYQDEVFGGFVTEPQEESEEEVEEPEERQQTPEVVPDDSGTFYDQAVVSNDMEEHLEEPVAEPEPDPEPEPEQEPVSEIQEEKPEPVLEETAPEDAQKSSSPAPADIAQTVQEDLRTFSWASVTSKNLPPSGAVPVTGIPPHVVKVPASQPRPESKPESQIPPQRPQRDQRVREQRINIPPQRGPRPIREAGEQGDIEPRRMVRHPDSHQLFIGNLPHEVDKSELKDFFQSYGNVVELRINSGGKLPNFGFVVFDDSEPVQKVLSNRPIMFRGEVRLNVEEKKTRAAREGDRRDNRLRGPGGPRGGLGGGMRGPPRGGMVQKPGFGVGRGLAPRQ
Shared flanks, not repeated: GGGAGUUCUACAGUCCGACGAUC … UGGAAUUCUCGGGUGUCAAGG
| Strand | log2 enrichment |
| --- | --- |
| UGGGAGGUGGAUUUUGUUUAUUUUUUUAGCUCAUUUCCAGGGGUGGGAAUUUUUUUUUAAUAUGAGUCAUGAAUAAAGUUGUUUUUGAAA | 1.75 |
| CCUGUGCUACACAUCGUAUGUACCGAAUCGGGCCCCCCGGGGCCCCCCGGCCCCCCGGGGAAAGUAUUAUGUUACGCCGUUCGGAUCUGC | -0.652 |
| ACCAUGCAGGUGGGCAUCUUUGGGAAGUGGGGCAAGGGGGGGAUAGGGAGGGGGGUAACACUUUGGGAACAGGCGGUCCCAGGUCGUUUC | 0.928 |
| CACAGACAACACGCACCCACACAGACACAGAGGGAAGGGGUUGGGAUGGGGACAAAAUGCACAGCAGGGCGGGGUAGGACCCCAGCCCCU | -0.198 |
| GCAGGAAGUUAAAACAAAUGGAAAUGCUUCGGAUAGUGGCAGGGGUGGGGGUUGCUAAGGAAAGGGUGGGAUGGGAGUGGGUAAAGAGUU | 1.23 |
| UGGGAGGUGGAUUUUGUUUAUUUUUUUAGCUCAUUUCCAGGGGAGGGAAUUUUUUUUUAAUAUGUGUCAUGAAUAAAGUUGUUUUUGAAA | 1.42 |
| AAGUCCUGUGCUACACAUCGUAUGUACCGAAUCGGGAAAGGGGAAAGGGGAAAGGGAAAGUAUUAUGUUACGCCGUUCGGAUCUGCACUU | 0.498 |
| UUCUUACAUGUGUAAUCUUCUUCUCCUAGGGCGGCAGAACUCAUGACAAGAACAAGCUCUGUGGUGACACUGGAAGUAGCAAAGCAGGGU | 0.0668 |
| UCCUGUGCUACACAUCGUAUGUACCGAAUCGGGGAAAAAGGGGAAAAAGGGGAAAAAGGAAAGUAUUAUGUUACGCCGUUCGGAUCUGCA | -0.0586 |
| GGUAGCAAGAGCUCCAGAGAGAAGUCGAGGAAGAGAGAGACGGGGUCAGAGAGAGCGCGCGGGCGUGCGAGCAGCGAAAGCGACAGGGGC | -0.265 |
| CCUGUGCUACACAUCGUAUGUACCGAAUCGGGGAAAAAGGGGAAAAAAAGGGGAAAGGGGAAAGUAUUAUGUUACGCCGUUCGGAUCUGC | 0.586 |
| UGGUGUUAUUUUUGCACUACAAGGGCUCUGAAGACUGCCAGGCUUGAAAUGAAGAACGAUGUCACCUGCCUAUCACAGCCAGGUGACAAU | -0.661 |
| UAACUUUAGAGGAGGAUCUGAUGGAUAUGACAGUGGACGUGGAUUUGGGGAUGGCUAUAAUGGGUAUGGAGGAGGACCUGGAGGUGGCAA | -0.836 |
| GCAGGAAGUAAAAACAAAUGGCAAUGCUUCGGAUAGUGGCAGGGGUGGGGGUUGCUAAGGAAAGGGUGGGAUGGGAGUGGGUAAAGAGUU | 1.32 |

Some of these lines once more (series 2):
| Strand | fitted relative affinity [z-score] |
| --- | --- |
| TTAGGTTTCGGTGTCGGTTAGTGCTAG | 6.2 |
| TTAGATATCGGATTTCGATTAGTGCTA | 1.9 |
| GACGAACTGAGTATTGAGACGTGCTAG | -0.117 |
| GACGGTTTCCTACTGTTGACGTGCTAG | 5.13 |
| TCATGTCTGGGATGTAATACTGTGCTA | -0.32 |
| GACGGACTGGGGATTCGGGACGTGCTA | -0.717 |
| CAGCTTCTAATATTCATTTTGTGCTAG | 1 |
| TCACCTTAGGTTTTCTGACTGTGCTAG | 0.575 |
| GACGGTTTCGGTTCCCGGACGTGCTAG | 9.42 |
| GACGGACTGGACACTGGGGGCGTGCTA | -0.444 |
| GACGGTCTCGGGATCGGGACGTGCTAG | 0.199 |
